Assay results of several laboratories.
Every numbered part comes from another study and shows a few of its results, in no order. Positions count from the first letter of the parent shown.

Block 1
Target: Interferon regulatory factor 5, full length, phosphomimetic (IRF5, Homo sapiens, UniProt Q13568-2, residues 1-514, S451D/S453D/S456D/S462D)
Method: protein-binding microarray
Molecule type: double-stranded DNA, one strand shown
Medium: in vitro
Tested at: 940 nM top
Setting: 60-bp whole probe
With: salmon DNA 0.4 mg/ml
Relative to: random background probes
Direction: higher = stronger binding
Shared flanks, not repeated: GCCTAGCAC … GTCTTGATTCGCTTGACGCTGCTG
| Sequence | fitted relative affinity |
| --- | --- |
| TTAGGTATCGGTTTCCGTTAGTGCTAG | 10.4 z-score |
| GACCGTATCGGTTTCGGGACGTGCTAG | 7.26 z-score |
| AGGTTGATGGCTCTCTGGACGTGCTAG | -0.66 z-score |
| GACGGTCACGGTCTCGGGACGTGCTAG | -0.09 z-score |
| GACGATTTCAGTTCCGAGCCGTGCTAG | 0.442 z-score |
| TTAGAACTGAGTCTAGATTAGTGCTAG | -0.285 z-score |
| TCATTTCTCAACCTCCAACTGTGCTAG | 1.44 z-score |
| TCATACATGAGTTTAGAACTGTGCTAG | -0.328 z-score |
| TCAACTCTCTACATGTGACTGTGCTAG | 0.981 z-score |
| GACGGCCTGGACTATCGGGACGTGCTA | -0.8 z-score |
| TTAGGACTGTACTTTCGGTTAGTGCTA | 3.66 z-score |
| TTAGGTATCGGGTATCGCTTAGTGCTA | 5.95 z-score |
| AACGGTCTCGGACTGGGGACGTGCTAG | 0.735 z-score |
| TCATATATGTATATATGACTGTGCTAG | -0.263 z-score |
| TTAGGTTGCCTTCTCCTTTAGTGCTAG | 0.172 z-score |
| GACGATATCGGGAATCGAGACGTGCTA | 0.152 z-score |
| GACGAACTGAGGTTTCGAGACGTGCTA | 1.12 z-score |
| TTAGGTATCGGAGTGGGTTAGTGCTAG | 3.04 z-score |
| TTATGTTTCGGTTCCGGTTAGTGCTAG | 9.21 z-score |
| TCATTTTGAGTTTTCCTACTGTGCTAG | 0.301 z-score |
| TTAGGACTGGACACTGGTTTAGTGCTA | -0.429 z-score |
| ACGAGTTTCCATTTTCTGAAGTGCTAG | 2.19 z-score |
| TTAGGACTGGGTGTCGGTTAGTGCTAG | -0.075 z-score |
| TTAGGACTGCTTTTCCTTTCGTGCTAG | -0.147 z-score |
| TCACTTTCCATTTCTGTTACTGTGCTA | 2.73 z-score |

Block 2
Target: Histone acetyltransferase KAT6A, both winged helices, GST fusion (KAT6A, Homo sapiens, UniProt Q92794, residues 1-181)
Method: protein binding microarray
Molecule type: double-stranded DNA, one strand shown
Medium: in vitro
Tested at: not given
Setting: 8-mer, flanks averaged, mean of 2 arrays, mostly near background
Relative to: not given
Direction: higher = stronger binding
Target sequence (chain): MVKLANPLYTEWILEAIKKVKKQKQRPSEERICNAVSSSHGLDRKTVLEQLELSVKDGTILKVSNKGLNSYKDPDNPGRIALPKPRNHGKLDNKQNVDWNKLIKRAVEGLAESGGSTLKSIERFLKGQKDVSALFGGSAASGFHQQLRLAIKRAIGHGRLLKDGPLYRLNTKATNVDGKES
| Sequence | E-score |
| --- | --- |
| CATCCCCC | -0.155 |
| GAGGACGC | 0.145 |
| AGACGGCC | 0.258 |
| AGGCAGAC | -0.19 |
| CGAAGCGA | 0.0837 |
| AACGAGCG | 0.179 |
| ATTCATCA | -0.0723 |
| AGCCCCCA | -0.32 |
| GATATATC | 0.109 |
| ACGATAAG | -0.0333 |
| CACAACCC | -0.0722 |
| AGAGTTTG | -0.136 |
| CCACCCCG | 0.138 |
| CACCTATG | 0.0396 |
| CTAGCAGC | -0.127 |
| AACGGAAT | 0.25 |
| CGATATTC | 0.0841 |
| CCGCCGAC | 0.281 |

Block 3
Target: Ras GTPase-activating protein-binding protein 1, full length (G3BP1, Homo sapiens, UniProt Q13283)
UniProt Q13283, sequence (whole entry, looked up): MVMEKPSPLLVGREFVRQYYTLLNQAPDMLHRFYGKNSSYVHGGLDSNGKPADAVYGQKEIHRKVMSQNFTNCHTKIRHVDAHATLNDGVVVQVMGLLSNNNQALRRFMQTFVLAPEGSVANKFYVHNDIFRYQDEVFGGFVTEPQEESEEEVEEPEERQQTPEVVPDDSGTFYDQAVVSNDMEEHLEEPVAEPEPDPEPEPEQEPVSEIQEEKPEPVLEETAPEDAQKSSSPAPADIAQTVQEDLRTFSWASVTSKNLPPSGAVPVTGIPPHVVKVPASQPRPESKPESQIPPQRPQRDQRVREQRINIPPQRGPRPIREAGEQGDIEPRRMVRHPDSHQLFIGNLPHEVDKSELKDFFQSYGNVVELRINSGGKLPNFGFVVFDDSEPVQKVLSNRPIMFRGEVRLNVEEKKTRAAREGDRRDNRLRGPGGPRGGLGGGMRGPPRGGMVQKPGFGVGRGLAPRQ
Method: RNA Bind-n-Seq
Molecule type: RNA
Medium: in vitro
Tested at: 200 nM
Setting: whole 134-nt RNA, ends assumed
With: 150 mM KCl
Relative to: input library
Direction: higher = stronger binding
Shared flanks, not repeated: GGGAGUUCUACAGUCCGACGAUC … UGGAAUUCUCGGGUGUCAAGG
| Sequence | log2 enrichment |
| --- | --- |
| UAACUUUAGAGGAGGAUCUGAUGGAUAUGGCAGUGGACGUGGAUUUGGGGAUGCCUAUAAUGGGUAUGGAGGAGGACCUGGAGGUGGCAA | 0.217 |
| ACCAUUCAGGUGGGCAUCUUUGGGAAGUGGGGCAAGGGGGGGAUAGGGAGGGGGGUAACACUUUGGGAACAGGUGGUCCCAGGUCGUUUC | 0.852 |
| ACCAUGCAGGUGGGCAUCUUUGGGAAGUGGGGCAAGCGGGGGAUAGGGAGGGGGGUAACACUUUGGGAACAGGUGGUCCCAGGUCGUUUC | 1.16 |
| GUCCUGUGCUACACAUCGUAUGUACCGAAUCGGGUUUUUGGGUUUUUGGGAAAAAGGGAAAGUAUUAUGUUACGCCGUUCGGAUCUGCAC | -0.585 |
| UCCUGUGCUACACAUCGUAUGUACCGAAUCGUGUGUGUGUGUGUGUGUGUGUGUGUGUGAAAGUAUUAUGUUACGCCGUUCGGAUCUGCA | 1.07 |
| ACCAUGCAGGUGGGCAUCUUUGGGAAGUGGGGCAAGGGGGGGAUAGGGAGGGGGGCAACACUUUGGGAACAGGUGGUCCCAGGUCGUUUC | 1.34 |
| UGGCCCUGGUGGCAUGCGGGGAGGAAGAGGUGGCAUCAUGGAUCGUGGUGGUCCCGGUGGAAUGUUCAGAGGUGGCCGUGGUGGAGACAG | 0.517 |
| GUCCUGUGCUACACAUCGUAUGUACCGAAUCGGGGUGGGGAAAAAGGGGUUUUUGGGGAAAGUAUUAUGUUACGCCGUUCGGAUCUGCAC | 0.396 |
| UGGGAGGUGGAUAUUGUUUAUUUUUUUAGCUCAUUUCCAGGGGUGGGAAUUUUUUUUUAAUAUGUGUCAUGAAUAAAGUUGUUUUUGAAA | 0.133 |
| UGGGAGGUGGAUUUUGUUUAUUUUUUUAGCUCAUUUCCAGGGGUGGGAAUUUUUUUUUAUUAUGUGUCAUGAAUAAAGUUGUUUUUGAAA | 0.25 |
| CACAGACAACACGCACCCACACAGACACAGACGGAAGGGGUUGGGAUGGGGACAGGGUGCACAGCAGGGCGGGGUAGGACCCCAGCCCCU | 1.94 |
| UGGGAGGUGGAUUUUGUUUAUUUUUUUAGCUCAUUUCCAGGGGUGGGAAUUUUUUUUUAAUAUGUGUCGUGAAUAAAGUUGUUUUUGAAA | 0.24 |
| UAACUUUAGAGGAGGAUCUGAUGGAUAUGGCAGUGGACGUCGAUUUGGGGAUGGCUAUAAUGGGUAUGGAGGAGGACCUGGAGGUGGCAA | 0.277 |
| CUGUGCUACACAUCGUAUGUACCGAAUCGGGGUUUUUUUGGGGAAAAAAAGGGGAAAGGGGAAAGUAUUAUGUUACGCCGUUCGGAUCUG | -0.317 |

Block 4
Target: RNA binding protein fox-1 homolog 2, RRM domain, GST-SBP tag (RBFOX2, Homo sapiens, UniProt O43251-10, residues 100-194)
Method: RNA Bind-n-Seq
Molecule type: RNA
Medium: in vitro
Tested at: 365 nM
Setting: natural RNA segment, single round, ends assumed
Relative to: no-protein control
Direction: higher = stronger binding
Shared flanks, not repeated: GGGAGUUCUACAGUCCGACGAUC … UGGAAUUCUCGGGUGCCAA
Residues (chain): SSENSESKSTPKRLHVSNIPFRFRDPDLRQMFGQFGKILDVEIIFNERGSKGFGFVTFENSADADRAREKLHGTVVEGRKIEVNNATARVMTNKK
| Sequence | RBNS enrichment (R) |
| --- | --- |
| GCCCUAAAGCAUCCUUUCUUUUACCCACUUAAAAAGCAUACGUGAUUUAUAAACACAGUGCUCUGAAAGGAAUCUUACAGACUGUAUCAGUCUAGCUUUUAAUUAAGUUA | 0.306 |
| UAGAAUUAAGUUAAUUUCUUCUCUUUCCAUCUACCUUUUUAUAAAUACAUAUCUAUGUCUCAUAAAAAUUAGAAUGUACUAUUUUAAAAUAAUAUGUGUAAAUUGAAAUU | 0.818 |
| UCCCCUUGAGUUGGGGCUGAUAUAGCAGGAGUGAAUCUUGUGGGGGAGUUUUUUUCCUCCACAUUUUGAGAUUUUGUGAUAAAUGGGAUGUGUGCCCACCCCUGACAUCU | 0.3 |
| AAAUGUGUUUAUUCUCUACAAUAUAUAAAAACAUAUUGGACUACUAUUACAUAAUUAAAUUACUCUUUAUUUGCUUAAAGAGGGUGAUUAUUUUUUCACUUACCGUUCCA | 0.356 |
| CUACCAAUGAUUGUUUAGCUAGCAAGAAUGGUAAGACUGAGGCACCAGUGAGUGAGCAAACCACUUUAGGCCAGGAGAAUUACAUAUUCUCUAGAGGCCAAGCAUCUGAU | 0.417 |
| UUUGUACUUGCCAUAGAUGUAACCUAAAAAGUUUUGGCAUAUUUAGGUCAGCCUAGCGGAACUUUUUUUUUCAUUUAAAUGGAGCUGAAUAAUGGAGAUUUUGUGUCUGC | 0.377 |
| UUGCUUUGGCUGUCGUCUUCUGCCGUGUGCCAGAUGAGCUUGUGAUCUGGGAAGCCGGGGCACCCCCGUUUUGUUUCUCUGGGCGGUUGUGGCAGCUGAAGGCGGACGUU | 1.73 |
| UCUGUCUCCGUGCUCUCCUGCCUCCACCGCCUUGGUUUUGCUUCCUGCUGGAGGCAGGGCACCUGCUGCGACCCAGAUUCUUCUGCAGGAUGUGUCUGUCUUUGUCACGG | 0.451 |
| CAGCCAUCUCUGCAAAUGCUCCUGAACUGCUGACAGUUACGGCAUCAAACGGAAGACGGCAGGCCCUGUCCUUCCACUCAGGUGCUGCUUGCAGUGCUCCUCAACAGAGG | 0.289 |
| GACUGGCCUUCCCGGCUCAGCCAGUGAGGCUCAGAAGGGACACAAAGAGGGAUGGAAGAAAAGAACAAAGAGAAACUGUUCCUCCCACCCCCUUCCCUGAUGCCAGGGGC | 0.288 |
| AGGGCAAAAGUUUAGAAAUCCACAUACAUUGGUUCUUAGAUCUCUUAGGAAAUCCUGCACCGGUUUCUUCGCUAAUUCUUGAAACUGCUCAAGCUUCAUGUAGGGUCAGG | 0.454 |
| AGUCUGAAAUUUAACGCCUACUUCCUAUAACACAUUUUAGGAUGCUUUCUGAUGAUUUAAACUUUGCAGUUUACUUUUUCAUCCUGUAUGAGAAGUACUAAGUAAGUUUA | 0.286 |

Block 5
Target: ABI1, truncated, D143A, DHFR fusion (Arabidopsis thaliana, UniProt P49597)
Method: DHFR PCA, dose-response
Medium: yeast
Setting: Hill fit, mean, not affinity
With: (+)-ABA, dose series
Direction: lower = more sensitive
Starting sequence: PYL1, truncated, DHFR fusion (Arabidopsis thaliana, UniProt Q8VZS8); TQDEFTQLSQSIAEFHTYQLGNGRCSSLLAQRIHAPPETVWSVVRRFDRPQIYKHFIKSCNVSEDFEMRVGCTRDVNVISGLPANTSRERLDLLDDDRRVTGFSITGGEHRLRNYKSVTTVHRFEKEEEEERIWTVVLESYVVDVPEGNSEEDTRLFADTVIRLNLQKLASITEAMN
| Substitution | ABA EC50 [µM] |
| --- | --- |
| V136M | 1.02 |
| R99E | 223 |
| S26L | 167 |
| E125H | 1.82 |
| V76A | 130 |
| C25L | 29.5 |
| E14K | 4.53 |
| T119K | 432 |
| L91Q | 615 |
| R69C | 2.87 |
| A175C | 2.25 |
| R163L | 57.8 |
| I79E | 31.3 |
| R46K | 6.88 |
| M68D | 42.2 |
| D65K | 2.79 |
| L20D | 1.98 |

Repeated from above (block 5):
| Substitution | ABA EC50 [µM] |
| --- | --- |
| R163L | 57.8 |
| M68D | 42.2 |
| R69C | 2.87 |
| L91Q | 615 |
